Results pooled from the literature.
Values joined by “and” are separate records of one study, mostly repeats; a detail may differ.
Target: RAC-beta serine/threonine-protein kinase (AKT2, Homo sapiens, UniProt P31751)
UniProt P31751, sequence (whole entry, looked up): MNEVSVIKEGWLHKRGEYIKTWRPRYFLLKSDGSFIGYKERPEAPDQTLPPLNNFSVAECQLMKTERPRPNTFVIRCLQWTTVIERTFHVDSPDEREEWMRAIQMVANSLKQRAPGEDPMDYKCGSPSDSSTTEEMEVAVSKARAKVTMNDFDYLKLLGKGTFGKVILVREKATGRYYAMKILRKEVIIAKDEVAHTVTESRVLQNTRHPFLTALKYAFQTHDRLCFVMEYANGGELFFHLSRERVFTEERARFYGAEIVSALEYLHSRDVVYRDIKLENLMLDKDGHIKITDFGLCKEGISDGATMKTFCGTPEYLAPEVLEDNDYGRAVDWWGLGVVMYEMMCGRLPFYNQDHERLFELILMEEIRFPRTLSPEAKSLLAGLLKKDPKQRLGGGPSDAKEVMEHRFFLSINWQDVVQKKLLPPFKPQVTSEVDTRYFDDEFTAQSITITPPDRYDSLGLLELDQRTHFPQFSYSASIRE

`CC(C)[C@H]1NC(=O)C[C@H]2/C=C/CCSSC[C@@H](NC1=O)C(=O)N[C@H](Cc1cccc3ccccc13)C(=O)NCC(=O)O2` has an inhibition of -2.4% (enzyme activity, inhibitor; 10 µM).
For `O=C(O)c1ccccc1/C=N/Nc1nc(-c2ccccc2Cl)cs1`, the inhibition was 1.03% (kinase activity; 1 µM).
For `CS(C)(=O)=Nc1ccc(-c2ccc(-c3nc4cc(O[C@@H]5CO[C@H]6[C@@H]5OC[C@H]6O)[nH]c4cc3F)cc2)cc1`, the inhibition was -24% (enzyme activity, inhibitor; 10 µM).
`O=C1NC(=O)c2c1c1cc(F)c[n+]3c1c1c2c2cc(O)ccc2[n]1[Ru-4]312([N]=C=S)[S+]3CC[S+]1CC[S+]2CC3` (centres unmarked) has a remaining activity of 57% (enzyme activity; 100 nM, human enzyme, added: 10 µM ATP; reference: untreated).
The remaining binding of `CCOC(=O)[C@@H]1Cc2c(cc([N+](=O)[O-])cc2[N+](=O)[O-])[C@H](O)[C@]12C(=O)Nc1ccc(Br)cc12` is reported as 51% (binding, competition with immobilised ligand; 0.1 µM).
`C[C@H](NCc1ccc(-c2ccc(C(F)(F)F)cc2)cc1)C(N)=O` gave an inhibition of 0% (cell-free assay, competition with immobilised ligand; 1 µM).
`Nc1ccc(/C=C/C(=O)N2CCc3c(oc4c(-c5ccc(F)cc5)cc(-c5ccc(C(=O)N6CCC(F)(F)CC6)cn5)cc34)C2)cn1` has a remaining binding of 98% (binding, competition with immobilised ligand; 1 µM).
`[CH3][Ti+2][O]C(=O)c1ccc([S][Au][PH](c2ccccc2)(c2ccccc2)c2ccccc2)cc1.c1cc[cH-]c1.c1cc[cH-]c1` gave a remaining activity of 82.7% and 82.8% (kinase activity, HotSpot radiometric; 1 µM, added: ATP 10 µM; reference: vehicle).

Some of these lines once more:
`[CH3][Ti+2][O]C(=O)c1ccc([S][Au][PH](c2ccccc2)(c2ccccc2)c2ccccc2)cc1.c1cc[cH-]c1.c1cc[cH-]c1` gave a remaining activity of 82.7% and 82.8% (kinase activity, HotSpot radiometric; 1 µM, added: ATP 10 µM; reference: vehicle).
